Published values of several laboratories.
Numbered parts are unrelated; each lists some results of a single study.

Sample 1
Target: Sal-like protein 4, full length isoform B (SALL4, Homo sapiens, UniProt Q9UJQ4-2, residues 1-616)
Technique: universal PBM
Molecule type: double-stranded DNA, one strand shown
Matrix: in vitro
Tested at: not given
Notes: 8-mer, flanks averaged, mean of replicates
Direction: higher = stronger binding
`CCGAGGAG` has an E-score of -0.198.
The E-score of `AACAAAAG` is reported as 0.186.
`TGAGGTAA` has an E-score of 0.0414.

Sample 2
Target: Fragile X messenger ribonucleoprotein 1, C-terminal low-complexity region (Fmr1, Mus musculus, UniProt P35922)
Technique: RNA Bind-n-Seq
Molecule type: RNA
Matrix: in vitro
Tested at: 200 nM
Notes: whole 134-nt RNA, ends assumed
Together with: 150 mM LiCl
Reference: input library
Direction: higher = stronger binding
All molecules: 7-deaza-guanosine replaces G
`GGGAGUUCUACAGUCCGACGAUCCAAGUCCUGUGCUACACAUCGUAUGUACCGAAUCGGAAAAAGGUUUUUUUGGAGGAAAGUAUUAUGUUACGCCGUUCGGAUCUGCACUUCUGGAAUUCUCGGGUGUCAAGG` gave a log2 enrichment of -1.9.
For `GGGAGUUCUACAGUCCGACGAUCUUUUACAACCCCAAUUUAAAGAAAGUUGUAGAGGCCCACAAGAUCGUUCUCUGCGCUGUAAGCCAUGUUUUCAUGCUGCUUUUCAAUGUGUGGAAUUCUCGGGUGUCAAGG`, the log2 enrichment was -2.07.
With `GGGAGUUCUACAGUCCGACGAUCGUCCUGUGCUACACAUCGUAUGUACCGAAUCGGGAAAAAGGGGAAAAAGGAAAAAGGGGAAAGUAUUAUGUUACGCCGUUCGGAUCUGCAUGGAAUUCUCGGGUGUCAAGG` the log2 enrichment was 0.707.

Sample 3
Target: Histone acetyltransferase KAT6A, winged helix 2, GST fusion (KAT6A, Homo sapiens, UniProt Q92794, residues 85-181)
Technique: protein binding microarray
Molecule type: double-stranded DNA, one strand shown
Matrix: in vitro
Tested at: not given
Notes: 8-mer, flanks averaged, mean of 2 arrays, mostly near background
Reference: not given
Direction: higher = stronger binding
Residues (chain): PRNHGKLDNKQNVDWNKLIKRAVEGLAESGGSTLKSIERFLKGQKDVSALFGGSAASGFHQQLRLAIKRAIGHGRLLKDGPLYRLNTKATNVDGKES
With `CCGCGACC` the E-score was 0.294.
For `CCATGTCA`, the E-score was -0.148.
The E-score of `CTATAGAG` is reported as -0.0735.

Mixed results
The fold induction of `PhoQ, residues 284 288 289 292 302 303 QWGLFV` is reported as 1.08 (PhoP, residues 12 14 15 18 19 LHSVQ (Escherichia coli, UniProt P23836); Sort-seq, item: YFP reporter; E. coli; PhoQ-PhoP variant library, together with: 10 µM Mg2+; reference: high Mg2+ state, higher = stronger signaling).

Excerpt of the above (sample 1):
`CCGAGGAG` has an E-score of -0.198.
